Measurements of several laboratories.
A part holds a random share of what one study measured. Changes are numbered by the printed parent chain.

Study 1 — technique: RNA Bind-n-Seq; molecule type: RNA; matrix: in vitro; tested at: 200 nM; notes: whole 134-nt RNA, ends assumed; together with: 150 mM KCl; reference: input library; direction: higher = stronger binding
Target: Ras GTPase-activating protein-binding protein 1, full length (G3BP1, Homo sapiens, UniProt Q13283)
Chain of UniProt Q13283 (whole entry, looked up): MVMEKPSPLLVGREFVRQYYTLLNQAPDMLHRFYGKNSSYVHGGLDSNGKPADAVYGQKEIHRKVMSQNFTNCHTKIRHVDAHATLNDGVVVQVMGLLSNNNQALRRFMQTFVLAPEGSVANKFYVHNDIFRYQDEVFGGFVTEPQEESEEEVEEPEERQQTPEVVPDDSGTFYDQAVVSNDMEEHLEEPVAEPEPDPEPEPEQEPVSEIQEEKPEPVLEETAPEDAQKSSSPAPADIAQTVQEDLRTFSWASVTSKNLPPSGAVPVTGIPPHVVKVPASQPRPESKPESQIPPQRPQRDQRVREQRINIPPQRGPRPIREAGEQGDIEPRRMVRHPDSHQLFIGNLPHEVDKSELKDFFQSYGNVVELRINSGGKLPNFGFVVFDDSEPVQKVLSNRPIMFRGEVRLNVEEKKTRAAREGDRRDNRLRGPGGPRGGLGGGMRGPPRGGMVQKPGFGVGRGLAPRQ
Shared flanks, not repeated: GGGAGUUCUACAGUCCGACGAUC … UGGAAUUCUCGGGUGUCAAGG
The log2 enrichment of `CUCAAGUCCUGUGCUACACAUCGUAUGUACCGAAUCGGGAGGGAGGGAAAGGGAAAGUAUUAUGUUACGCCGUUCGGAUCUGCACUUCCA` is reported as 1.27.
`CCUGUGCUACACAUCGUAUGUACCGAAUCGGGGAAAAAAAGGGGUUUGGGGUUUUUGGGGAAAGUAUUAUGUUACGCCGUUCGGAUCUGC` gave a log2 enrichment of 0.394.
With `AAGUCCUGUGCUACACAUCGUAUGUACCGAAUCGGGGAGGGGUUUGGGGAAAGGGGAAAGUAUUAUGUUACGCCGUUCGGAUCUGCACUU` the log2 enrichment was 0.849.
`CUGUGCUACACAUCGUAUGUACCGAAUCGGGGUUUUUUUGGGGUUUUUUUGGGUUUUUUUGGAAAGUAUUAUGUUACGCCGUUCGGAUCU` gave a log2 enrichment of -0.678.
`CUCAAGUCCUGUGCUACACAUCGUAUGUACCGAAUCGGAGGUUUGGUUUUUGGAAAGUAUUAUGUUACGCCGUUCGGAUCUGCACUUCCA` gave a log2 enrichment of -0.388.
For `GUCCUGUGCUACACAUCGUAUGUACCGAAUCGGGGUUUUUGGGGUUUUUGGGUUUUUGGAAAGUAUUAUGUUACGCCGUUCGGAUCUGCA`, the log2 enrichment was -0.315.
For `UGUGCUACACAUCGUAUGUACCGAAUCGGGGCCCCCCCGGGGCCCCCCCGGGCCCCCCCGGGGAAAGUAUUAUGUUACGCCGUUCGGAUC`, the log2 enrichment was -1.87.
For `GUCCUGUGCUACACAUCGUAUGUACCGAAUCGGGUUUGGGAAAAAAAGGGAAAAAGGGAAAGUAUUAUGUUACGCCGUUCGGAUCUGCAC`, the log2 enrichment was -0.325.
The log2 enrichment of `CUGUGCUACACAUCGUAUGUACCGAAUCGGGGUUUUUGGGGAAAAAAAGGGGAAAAAGGGGAAAGUAUUAUGUUACGCCGUUCGGAUCUG` is reported as -0.181.
`UGCUGUUAUCUGGAACUCCUACCUGUCCUGGAAGGCACAUCGGCUCUAAGCCUGCCUCACUCCAUCGUUUCCACCUUGCAGUGAUGCAGC` has a log2 enrichment of -1.37.

Study 2 — target: CREB3, bZIP domain (human); technique: DHFR protein complementation; matrix: yeast; reference: wild-type JUN-FOS pair; direction: higher = stronger binding
Notes: single substitutions, most at no-binding floor
Parent: JUN, bZIP domain (human); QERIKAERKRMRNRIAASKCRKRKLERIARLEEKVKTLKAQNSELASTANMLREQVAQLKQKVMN; partner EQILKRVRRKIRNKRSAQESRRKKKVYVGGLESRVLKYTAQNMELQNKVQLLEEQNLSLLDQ
With `K39G` the binding fitness was -1.43 natural log.
For `K39Y`, the binding fitness was -1.48 natural log.
The binding fitness of `E44R` is reported as -1.41 natural log.
`K34C` has a binding fitness of -1.49 natural log.
`V35Y` gave a binding fitness of -1.54 natural log.
For `L31S`, the binding fitness was -1.45 natural log.
For `Q41S`, the binding fitness was -1.5 natural log.
`E54W` gave a binding fitness of -1.46 natural log.
The binding fitness of `E33R` is reported as -1.44 natural log.
For `E44L`, the binding fitness was -1.46 natural log.
For `L45P`, the binding fitness was -1.5 natural log.
`A29L` has a binding fitness of -1.51 natural log.
For `A46R`, the binding fitness was -1.44 natural log.
`N42T` gave a binding fitness of -1.54 natural log.
With `A49L` the binding fitness was -1.33 natural log.
`L45Y` gave a binding fitness of -1.57 natural log.
The binding fitness of `E33P` is reported as -1.56 natural log.
`E44Q` gave a binding fitness of -1.32 natural log.
The binding fitness of `Q55S` is reported as -1.5 natural log.
For `L31F`, the binding fitness was -1.58 natural log.
For `K36N`, the binding fitness was -1.33 natural log.
For `K34A`, the binding fitness was -1.29 natural log.
For `S43Y`, the binding fitness was -1.52 natural log.
`K36Q` has a binding fitness of -1.5 natural log.
The binding fitness of `I28P` is reported as -1.48 natural log.

Study 3 — technique: protein binding microarray; molecule type: double-stranded DNA, one strand shown; matrix: in vitro; tested at: not given; reference: not given; direction: higher = stronger binding
Target: Histone acetyltransferase KAT6A, both winged helices, GST fusion (KAT6A, Homo sapiens, UniProt Q92794, residues 1-181)
Notes: 8-mer, flanks averaged, mean of 2 arrays, mostly near background
Target sequence (chain): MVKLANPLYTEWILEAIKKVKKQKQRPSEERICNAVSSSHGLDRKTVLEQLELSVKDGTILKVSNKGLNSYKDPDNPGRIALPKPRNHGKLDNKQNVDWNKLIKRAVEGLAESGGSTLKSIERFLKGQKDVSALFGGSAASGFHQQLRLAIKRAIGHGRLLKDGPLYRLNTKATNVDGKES
For `GTACTGTA`, the E-score was -0.0509.
`CGATGACC` gave an E-score of 0.193.
For `ATAGACCG`, the E-score was 0.0737.
For `CACGAACC`, the E-score was 0.124.
With `ACTTCACA` the E-score was -0.214.
`AGATGCAC` gave an E-score of -0.0514.
For `ACAATACG`, the E-score was 0.0916.
For `AGTCGCCC`, the E-score was -0.158.
With `ACTGCTCT` the E-score was -0.11.
`CTAAGAAG` has an E-score of -0.0724.
With `GATACATC` the E-score was -0.0717.
The E-score of `ACTACTAA` is reported as -0.0605.
With `CTGCGGGA` the E-score was 0.209.
With `CAATCAGG` the E-score was 0.00361.
`CCGTACTA` has an E-score of 0.249.
`GACGGTTA` gave an E-score of 0.122.
The E-score of `TCTAGAGA` is reported as -0.213.
With `AAGCTGGA` the E-score was -0.187.
For `AGAGTATC`, the E-score was -0.0293.
For `GTGGTTCA`, the E-score was -0.00108.
The E-score of `CCGCACCC` is reported as 0.17.
`AGCTTAGA` gave an E-score of -0.0424.
With `AATAATCC` the E-score was -0.0344.
The E-score of `AAACTCGC` is reported as 0.0983.

Study 4 — technique: DHFR PCA, deep sequencing; matrix: yeast; together with: (+)-ABA 200 µM; reference: wild-type fitted maximum; direction: higher = stronger binding
Target: ABI1, truncated, D143A, DHFR fusion (Arabidopsis thaliana)
Notes: methotrexate growth selection, single substitutions
Parent: PYL1, truncated, DHFR fusion (Arabidopsis thaliana); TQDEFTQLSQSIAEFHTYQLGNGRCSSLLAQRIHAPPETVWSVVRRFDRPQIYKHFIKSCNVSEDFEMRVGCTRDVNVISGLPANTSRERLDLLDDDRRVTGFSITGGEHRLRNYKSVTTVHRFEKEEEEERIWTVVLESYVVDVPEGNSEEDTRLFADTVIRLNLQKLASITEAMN; partner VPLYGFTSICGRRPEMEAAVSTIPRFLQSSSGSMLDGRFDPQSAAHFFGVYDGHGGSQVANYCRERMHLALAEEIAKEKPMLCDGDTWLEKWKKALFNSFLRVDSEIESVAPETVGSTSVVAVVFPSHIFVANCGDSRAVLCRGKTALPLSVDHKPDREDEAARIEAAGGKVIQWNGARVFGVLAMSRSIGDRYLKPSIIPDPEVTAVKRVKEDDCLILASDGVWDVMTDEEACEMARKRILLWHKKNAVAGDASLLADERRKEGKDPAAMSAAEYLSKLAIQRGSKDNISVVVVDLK
Under “relative binding score”, `L166C` is recorded as 7.02%.
`A175N` — result for “relative binding score”: 105%.
Under “relative binding score”, `N149R` is recorded as 21.7%.
For `D3R`, “relative binding score” read 94.9%.
`D75Q` — result for “relative binding score”: 108%.
Under “relative binding score”, `T160R` is recorded as 79.8%.
`V78R`: “relative binding score” 11.9%.
Under “relative binding score”, `R69F` is recorded as 91.8%.
`D153S`: “relative binding score” 49.6%.
`G23Y` — result for “relative binding score”: 83.2%.
Under “relative binding score”, `N165W` is recorded as -1.06%.
For `V100I`, “relative binding score” read 106%.
`I105A`: “relative binding score” 57.4%.
For `E64L`, “relative binding score” read 91.9%.
For `C72N`, “relative binding score” read 94.8%.
`A30N`: “relative binding score” 87.3%.
Under “relative binding score”, `Q19L` is recorded as 89.7%.
`I133V` — result for “relative binding score”: 115%.
For `Q51I`, “relative binding score” read 53.1%.
`T120V`: “relative binding score” -4.9%.
`L93P`: “relative binding score” 6.14%.
Under “relative binding score”, `R99F` is recorded as 113%.
`L156I` — result for “relative binding score”: 94.2%.
For `T160F`, “relative binding score” read 98.9%.
Under “relative binding score”, `E14F` is recorded as 74.7%.

Study 5 — target: CCND1, cyclin fold, Cln2 fusion (human); technique: yeast growth competition, sequencing; matrix: yeast; notes: strong parent motif; reference: not given; direction: higher = stronger binding
Parent: RBL1 docking peptide (human); GSAKRRLFGEDPP
For `G9W`, “normalised enrichment score” read 2.85.
`S2V`: “normalised enrichment score” 0.574.
For `F8W`, “normalised enrichment score” read 0.351.
`K4A`: “normalised enrichment score” 2.06.
Under “normalised enrichment score”, `G9D` is recorded as 2.73.
Under “normalised enrichment score”, `P13Q` is recorded as 1.3.
`R5S`: “normalised enrichment score” 0.684.
Under “normalised enrichment score”, `G1F` is recorded as 2.78.
Under “normalised enrichment score”, `D11L` is recorded as 0.988.
`R6G`: “normalised enrichment score” 0.241.
`G1Q`: “normalised enrichment score” 1.91.
`F8I` — result for “normalised enrichment score”: 0.459.
`E10N` — result for “normalised enrichment score”: 1.21.
Under “normalised enrichment score”, `R5E` is recorded as 0.667.
`E10Y`: “normalised enrichment score” 0.553.
Under “normalised enrichment score”, `K4G` is recorded as 0.226.
`E10Q` — result for “normalised enrichment score”: 0.291.
`K4N`: “normalised enrichment score” 1.08.
Under “normalised enrichment score”, `S2E` is recorded as 0.912.
`G9N`: “normalised enrichment score” 2.58.
For `R5A L7A`, “normalised enrichment score” read -0.0113.

Repeated from above (study 4):
`D153S`: “relative binding score” 49.6%.
`G23Y` — result for “relative binding score”: 83.2%.
Under “relative binding score”, `N165W` is recorded as -1.06%.
For `V100I`, “relative binding score” read 106%.
`I105A`: “relative binding score” 57.4%.
For `E64L`, “relative binding score” read 91.9%.
For `C72N`, “relative binding score” read 94.8%.
`A30N`: “relative binding score” 87.3%.
Under “relative binding score”, `Q19L` is recorded as 89.7%.
`I133V` — result for “relative binding score”: 115%.
For `Q51I`, “relative binding score” read 53.1%.
`T120V`: “relative binding score” -4.9%.
`L93P`: “relative binding score” 6.14%.
Under “relative binding score”, `R99F` is recorded as 113%.
`L156I` — result for “relative binding score”: 94.2%.
For `T160F`, “relative binding score” read 98.9%.
